Measurements collected from several papers.
Every numbered part comes from another study and shows a few of its results, in no order. Substitutions count along the parent as printed.
Chain of UniProt O75914 (whole entry, looked up): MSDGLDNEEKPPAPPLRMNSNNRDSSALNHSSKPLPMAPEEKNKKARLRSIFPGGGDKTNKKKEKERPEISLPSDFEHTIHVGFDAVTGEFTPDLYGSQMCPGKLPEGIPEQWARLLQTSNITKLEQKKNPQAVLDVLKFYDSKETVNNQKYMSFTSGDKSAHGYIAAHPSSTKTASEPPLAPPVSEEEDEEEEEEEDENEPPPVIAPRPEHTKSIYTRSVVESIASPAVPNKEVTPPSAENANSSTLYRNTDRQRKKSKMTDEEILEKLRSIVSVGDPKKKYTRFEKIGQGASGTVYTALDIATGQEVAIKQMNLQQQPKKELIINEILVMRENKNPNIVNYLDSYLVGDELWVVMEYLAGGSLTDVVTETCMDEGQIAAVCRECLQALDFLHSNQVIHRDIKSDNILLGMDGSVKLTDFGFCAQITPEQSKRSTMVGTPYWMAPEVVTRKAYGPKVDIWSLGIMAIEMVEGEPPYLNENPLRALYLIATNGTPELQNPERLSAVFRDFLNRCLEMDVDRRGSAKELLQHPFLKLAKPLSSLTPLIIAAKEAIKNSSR
Chain of UniProt Q6ZWH5 (whole entry, looked up): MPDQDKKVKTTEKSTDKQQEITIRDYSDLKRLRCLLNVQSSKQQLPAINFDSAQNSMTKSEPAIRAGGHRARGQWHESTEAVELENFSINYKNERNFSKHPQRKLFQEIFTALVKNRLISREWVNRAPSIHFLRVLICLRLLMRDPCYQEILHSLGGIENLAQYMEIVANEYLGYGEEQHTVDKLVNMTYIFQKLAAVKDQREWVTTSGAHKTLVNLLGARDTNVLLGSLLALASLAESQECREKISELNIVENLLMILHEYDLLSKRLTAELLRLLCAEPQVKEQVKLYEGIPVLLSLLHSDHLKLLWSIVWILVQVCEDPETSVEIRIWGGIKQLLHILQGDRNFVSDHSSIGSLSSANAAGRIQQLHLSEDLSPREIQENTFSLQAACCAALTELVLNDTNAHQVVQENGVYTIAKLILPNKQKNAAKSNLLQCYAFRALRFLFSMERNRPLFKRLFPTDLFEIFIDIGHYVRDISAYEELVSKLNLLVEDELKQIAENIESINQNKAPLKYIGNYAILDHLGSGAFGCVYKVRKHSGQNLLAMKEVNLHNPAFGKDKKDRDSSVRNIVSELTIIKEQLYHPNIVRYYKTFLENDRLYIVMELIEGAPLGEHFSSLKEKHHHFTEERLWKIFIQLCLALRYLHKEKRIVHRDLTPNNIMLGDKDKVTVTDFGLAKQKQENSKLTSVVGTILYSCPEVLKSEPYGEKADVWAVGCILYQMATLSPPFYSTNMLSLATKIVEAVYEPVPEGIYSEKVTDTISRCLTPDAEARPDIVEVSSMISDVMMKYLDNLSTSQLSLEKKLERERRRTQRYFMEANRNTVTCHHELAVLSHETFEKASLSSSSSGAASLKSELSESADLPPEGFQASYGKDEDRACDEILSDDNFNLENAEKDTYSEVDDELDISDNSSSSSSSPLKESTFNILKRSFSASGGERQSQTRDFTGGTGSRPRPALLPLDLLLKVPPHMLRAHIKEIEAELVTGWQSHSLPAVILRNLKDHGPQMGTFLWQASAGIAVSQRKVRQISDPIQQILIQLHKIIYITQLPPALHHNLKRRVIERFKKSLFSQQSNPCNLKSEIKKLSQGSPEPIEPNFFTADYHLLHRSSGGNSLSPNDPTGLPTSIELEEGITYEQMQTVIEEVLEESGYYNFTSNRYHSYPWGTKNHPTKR
Chain of UniProt Q13555 (whole entry, looked up): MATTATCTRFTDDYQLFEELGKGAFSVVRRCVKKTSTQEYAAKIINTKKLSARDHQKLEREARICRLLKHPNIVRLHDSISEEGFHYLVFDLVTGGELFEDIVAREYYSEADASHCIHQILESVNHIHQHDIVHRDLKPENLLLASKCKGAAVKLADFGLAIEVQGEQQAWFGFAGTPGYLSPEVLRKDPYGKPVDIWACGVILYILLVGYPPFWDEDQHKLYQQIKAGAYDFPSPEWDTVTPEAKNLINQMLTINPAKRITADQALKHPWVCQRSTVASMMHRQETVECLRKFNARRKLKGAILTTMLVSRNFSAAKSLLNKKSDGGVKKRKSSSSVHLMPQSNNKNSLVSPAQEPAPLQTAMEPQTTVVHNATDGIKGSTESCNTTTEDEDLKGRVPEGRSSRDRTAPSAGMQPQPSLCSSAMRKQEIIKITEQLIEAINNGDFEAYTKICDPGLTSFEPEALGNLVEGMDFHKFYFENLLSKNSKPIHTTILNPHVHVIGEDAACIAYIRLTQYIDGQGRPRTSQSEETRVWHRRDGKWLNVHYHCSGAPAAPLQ
Chain of UniProt P11802 (whole entry, looked up): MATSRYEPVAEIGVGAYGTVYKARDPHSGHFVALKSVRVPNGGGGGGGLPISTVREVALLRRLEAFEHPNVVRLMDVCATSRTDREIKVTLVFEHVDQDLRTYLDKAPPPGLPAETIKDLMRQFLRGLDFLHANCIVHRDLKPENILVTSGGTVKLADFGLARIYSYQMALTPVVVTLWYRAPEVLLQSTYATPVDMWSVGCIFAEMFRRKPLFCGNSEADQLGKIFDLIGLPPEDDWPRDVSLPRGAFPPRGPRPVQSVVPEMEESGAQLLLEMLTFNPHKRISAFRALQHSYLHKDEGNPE
Chain of UniProt P22607 (whole entry, looked up): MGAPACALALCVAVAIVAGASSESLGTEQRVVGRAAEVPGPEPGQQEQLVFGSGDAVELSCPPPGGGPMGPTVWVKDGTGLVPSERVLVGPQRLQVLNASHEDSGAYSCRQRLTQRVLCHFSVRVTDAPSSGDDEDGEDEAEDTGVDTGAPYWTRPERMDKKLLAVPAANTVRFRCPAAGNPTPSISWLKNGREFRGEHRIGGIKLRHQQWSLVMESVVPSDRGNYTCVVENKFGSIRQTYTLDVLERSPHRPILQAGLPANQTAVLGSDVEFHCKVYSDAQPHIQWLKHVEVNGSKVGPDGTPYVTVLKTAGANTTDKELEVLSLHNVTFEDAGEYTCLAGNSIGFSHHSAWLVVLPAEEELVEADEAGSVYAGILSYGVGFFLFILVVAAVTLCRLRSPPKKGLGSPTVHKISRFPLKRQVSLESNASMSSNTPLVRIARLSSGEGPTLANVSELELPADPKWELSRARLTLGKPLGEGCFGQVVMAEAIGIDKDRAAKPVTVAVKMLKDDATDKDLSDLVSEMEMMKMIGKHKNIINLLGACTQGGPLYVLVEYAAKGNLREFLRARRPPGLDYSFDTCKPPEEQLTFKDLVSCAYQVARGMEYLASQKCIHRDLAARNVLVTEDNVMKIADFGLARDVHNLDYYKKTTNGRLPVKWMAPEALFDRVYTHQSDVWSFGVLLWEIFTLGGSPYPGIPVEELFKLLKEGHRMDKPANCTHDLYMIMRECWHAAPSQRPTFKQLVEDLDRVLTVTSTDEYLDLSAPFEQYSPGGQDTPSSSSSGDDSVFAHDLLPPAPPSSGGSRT
Chain of UniProt P33981 (whole entry, looked up): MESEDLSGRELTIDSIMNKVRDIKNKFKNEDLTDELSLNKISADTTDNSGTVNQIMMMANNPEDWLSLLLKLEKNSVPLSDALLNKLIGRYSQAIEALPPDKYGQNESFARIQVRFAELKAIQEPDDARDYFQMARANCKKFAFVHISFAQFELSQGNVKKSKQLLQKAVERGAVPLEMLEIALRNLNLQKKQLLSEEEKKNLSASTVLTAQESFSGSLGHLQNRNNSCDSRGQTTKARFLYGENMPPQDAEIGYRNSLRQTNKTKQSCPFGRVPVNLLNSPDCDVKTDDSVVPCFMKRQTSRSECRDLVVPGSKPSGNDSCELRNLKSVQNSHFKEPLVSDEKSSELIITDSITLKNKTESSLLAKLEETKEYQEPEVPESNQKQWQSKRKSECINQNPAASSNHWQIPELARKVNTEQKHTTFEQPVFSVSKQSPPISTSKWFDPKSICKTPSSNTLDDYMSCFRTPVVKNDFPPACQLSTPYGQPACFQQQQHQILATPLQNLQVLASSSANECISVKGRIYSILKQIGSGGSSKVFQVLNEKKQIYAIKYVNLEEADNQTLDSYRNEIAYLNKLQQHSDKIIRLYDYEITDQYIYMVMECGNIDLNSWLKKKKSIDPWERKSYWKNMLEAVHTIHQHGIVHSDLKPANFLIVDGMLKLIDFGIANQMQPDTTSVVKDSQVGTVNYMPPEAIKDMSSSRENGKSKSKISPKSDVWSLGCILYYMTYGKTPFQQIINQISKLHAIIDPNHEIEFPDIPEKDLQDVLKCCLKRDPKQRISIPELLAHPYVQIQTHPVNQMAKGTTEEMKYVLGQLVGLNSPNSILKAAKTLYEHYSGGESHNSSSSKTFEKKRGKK

Set 1
Target: Microphthalmia-associated transcription factor, full length (MITF, Homo sapiens, UniProt O75030-10, residues 1-413)
Technique: protein-binding microarray
Molecule type: hairpin DNA
Sample: in vitro
Tested at: not given
Notes: whole hairpin DNA, median over replicate spots
Relative to: not given
Reading: higher = stronger binding
| Oligonucleotide | median fluorescence |
| --- | --- |
| CACTTAGCACGTGATTTTGGTCCTCCAAAATCACGTGCTAAGTGACACTC (5mC at 10 34) | 9520 a.u. |
| GAGGCCTAGCGCGTGCTGCCTCCTGGCAGCACGCGCTAGGCCTCACACTC | 14500 a.u. |
| GAGGCCTAGCACTTGCTGCCTCCTGGCAGCAAGTGCTAGGCCTCACACTC | 4990 a.u. |
| CACTTACGACGTGATTTTGGTCCTCCAAAATCACGTCGTAAGTGACACTC (5mC at 7) | 5900 a.u. |
| CACTTACCACGTGATTTTGGTCCTCCAAAATCACGTGGTAAGTGACACTC (5mC at 7) | 28700 a.u. |
| GAGGCCTAGCACGTCCTGCCTCCTGGCAGGACGTGCTAGGCCTCACACTC | 5790 a.u. |
| GAGGCCTAGCACGTGCGGCCTCCTGGCCGCACGTGCTAGGCCTCACACTC (5mC at 16 28) | 17700 a.u. |
| CACTTAGCACGTGCTTTTGGTCCTCCAAAAGCACGTGCTAAGTGACACTC (5mC at 14) | 19500 a.u. |

Set 2
Target: Serine/threonine-protein kinase tousled-like 2 (TLK2, Homo sapiens, UniProt Q86UE8)
Chain of UniProt Q86UE8 (whole entry, looked up): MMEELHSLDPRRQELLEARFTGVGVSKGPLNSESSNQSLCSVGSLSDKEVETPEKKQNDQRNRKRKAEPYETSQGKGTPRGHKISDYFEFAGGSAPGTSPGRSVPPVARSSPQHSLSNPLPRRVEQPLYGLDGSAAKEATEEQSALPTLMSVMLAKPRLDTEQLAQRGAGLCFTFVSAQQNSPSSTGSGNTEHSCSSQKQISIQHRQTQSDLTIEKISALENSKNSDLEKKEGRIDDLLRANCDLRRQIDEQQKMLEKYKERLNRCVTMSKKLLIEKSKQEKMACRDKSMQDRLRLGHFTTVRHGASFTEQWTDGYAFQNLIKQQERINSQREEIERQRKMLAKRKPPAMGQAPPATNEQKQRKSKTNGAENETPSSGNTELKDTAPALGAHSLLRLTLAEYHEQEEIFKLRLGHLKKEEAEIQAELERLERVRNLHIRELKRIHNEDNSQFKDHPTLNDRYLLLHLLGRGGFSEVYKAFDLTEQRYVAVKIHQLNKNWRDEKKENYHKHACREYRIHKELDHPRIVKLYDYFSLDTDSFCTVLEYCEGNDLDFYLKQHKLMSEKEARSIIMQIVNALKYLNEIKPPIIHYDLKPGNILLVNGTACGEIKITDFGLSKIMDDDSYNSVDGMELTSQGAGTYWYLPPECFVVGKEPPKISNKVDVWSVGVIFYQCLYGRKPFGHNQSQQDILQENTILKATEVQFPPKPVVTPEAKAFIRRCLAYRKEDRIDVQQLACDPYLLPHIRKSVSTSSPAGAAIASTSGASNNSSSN
Effect on: enzyme activity
Mode: inhibitor
Tested at: 0.5 µM
Relative to: control
| Structure (SMILES) | remaining activity |
| --- | --- |
| C#Cc1cccc(Nc2ncnc3cc(OCCOC)c(OCCOC)cc23)c1 | 85.9% |
| COc1cc2nccc(Oc3ccc(NC(=S)NC(=O)c4ccccc4C)cc3)c2cc1OC | 85.3% |
| Nc1ncnc2n[nH]c(Nc3ccc(F)cc3)c12 | 79% |
| COc1cc2ncnc(Nc3ccc(Oc4ccccc4)cc3)c2cc1OC | 107% |
| Cc1ccc(NC(=O)c2ccc(CN3CCN(C)CC3)cc2)cc1Nc1nc(-c2cccnc2)cs1 | 94.5% |
| CO[C@H]1C[C@@H]2CC[C@@H](C)[C@@](O)(O2)C(=O)C(=O)N2CCCC[C@H]2C(=O)O[C@H]([C@H](C)C[C@@H]2CC[C@@H](O)[C@H](OC)C2)CC(=O)[C@H](C)/C=C(\C)[C@@H](O)[C@@H](OC)C(=O)[C@H](C)C[C@H](C)/C=C/C=C/C=C/1C | 94.4% |
| N#CC(C#N)=C(N)/C(C#N)=C/c1ccc(O)cc1 | 89.4% |
| COc1cc2ncnc(Nc3ccc(F)c(Cl)c3)c2cc1OCCCN1CCOCC1 | 80.4% |
| O=C(O)c1ccc2c3c1cccc3c(=O)n1c3ccccc3nc21 | 91.2% |
| CCOC(=O)c1c(C)[nH]c(/C=C2\C(=O)Nc3ccccc32)c1C | 96.5% |
| Oc1ccc(-c2nc(-c3ccncc3)c(-c3ccc(F)cc3)[nH]2)cc1 | 97.4% |
| CNC(=O)c1cc(Oc2ccc(NC(=O)Nc3ccc(Cl)c(C(F)(F)F)c3)cc2)ccn1 | 84.8% |
| Cc1cccc(-c2[nH]c(C(C)(C)C)nc2-c2ccc3c(c2)OCO3)n1 | 103% |
| O=C(CCCc1ccc(-c2ccccc2F)cc1)Nc1ccc(O)cc1 | 84.1% |
| O=C1NC(=O)C(c2cn(CCCn3ccnc3)c3ccccc23)=C1Nc1ccccc1 | 74.1% |
| Cc1nc(-c2ccccc2)c(-c2ccncc2)o1 | 110% |

Set 3
Target: CCND1, cyclin fold, Cln2 fusion (human)
Technique: yeast growth competition, sequencing
Sample: yeast
Notes: weak parent motif
Relative to: not given
Reading: higher = stronger binding
Parent: ORC1 docking peptide (human); PRARKRLELGNLG; partner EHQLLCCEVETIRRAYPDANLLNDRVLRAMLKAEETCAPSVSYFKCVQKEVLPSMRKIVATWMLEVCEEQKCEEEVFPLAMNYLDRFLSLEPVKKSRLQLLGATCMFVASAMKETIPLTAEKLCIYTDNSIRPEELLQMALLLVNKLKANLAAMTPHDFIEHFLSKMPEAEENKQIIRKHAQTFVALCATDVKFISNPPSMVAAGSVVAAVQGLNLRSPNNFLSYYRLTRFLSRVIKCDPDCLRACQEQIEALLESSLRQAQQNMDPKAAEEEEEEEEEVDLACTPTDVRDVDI
| Variant | normalised enrichment score |
| --- | --- |
| L12S | 0.0281 |
| R4T | 0.632 |
| A3R | -0.373 |
| N11S | 0.216 |
| E8K | -0.321 |
| N11L | 0.19 |
| K5R | -0.0437 |
| R6H | -0.0337 |

Set 4
SMILES: Cn1nc(C(=O)NCc2ccc(C(=O)O)cc2)cc1-c1ccc2[nH]ccc2c1
Technique: competition with immobilised ligand
Tested at: 0.1 µM
| target | effect on | remaining binding [%] |
| --- | --- | --- |
| STK32C (Homo sapiens, UniProt Q86UX6) | cell-free assay | 100 |
| FLT3 (Homo sapiens, UniProt P36888, D835V/ITD) | cell-free assay | 99 |
| PIKFYVE (Homo sapiens, UniProt Q9Y2I7) | cell-free assay | 100 |
| FGFR3 (Homo sapiens, UniProt P22607) | cell-free assay | 93 |
| RPS6KB1 (Homo sapiens, UniProt P23443) | cell-free assay | 91 |
| FGR (Homo sapiens, UniProt P09769) | cell-free assay | 87 |
| MET (Homo sapiens, UniProt P08581, M1250T) | cell-free assay | 91 |
| Tyrosine-protein kinase ABL1, phosphorylated (ABL1, Homo sapiens, UniProt P00519) | cell-free assay | 62 |
| TTK (Homo sapiens, UniProt P33981) | cell-free assay | 88 |
| NEK6 (Homo sapiens, UniProt Q9HC98) | cell-free assay | 91 |
| FGFR1 (Homo sapiens, UniProt P11362) | cell-free assay | 84 |
| Cyclin-dependent kinase 4, with cyclin D3 (CDK4, Homo sapiens, UniProt P11802) | cell-free assay | 88 |
| PIK3CB (Homo sapiens, UniProt P42338) | cell-free assay | 82 |
| NEK10 (Homo sapiens, UniProt Q6ZWH5) | cell-free assay | 58 |
| BMPR1B (Homo sapiens, UniProt O00238) | cell-free assay | 88 |
| CDKL2 (Homo sapiens, UniProt Q92772) | cell-free assay | 78 |
| CAMK1 (Homo sapiens, UniProt Q14012) | cell-free assay | 95 |
| MAP3K6 (Homo sapiens, UniProt O95382) | cell-free assay | 88 |
| DAPK2 (Homo sapiens, UniProt Q9UIK4) | cell-free assay | 96 |
| ACVRL1 (Homo sapiens, UniProt P37023) | binding | 97 |
| CAMK2G (Homo sapiens, UniProt Q13555) | cell-free assay | 83 |
| PAK3 (Homo sapiens, UniProt O75914) | cell-free assay | 82 |

Excerpt of the above (set 1):
| Oligonucleotide | median fluorescence |
| --- | --- |
| CACTTACCACGTGATTTTGGTCCTCCAAAATCACGTGGTAAGTGACACTC (5mC at 7) | 28700 a.u. |
| GAGGCCTAGCGCGTGCTGCCTCCTGGCAGCACGCGCTAGGCCTCACACTC | 14500 a.u. |
| CACTTACGACGTGATTTTGGTCCTCCAAAATCACGTCGTAAGTGACACTC (5mC at 7) | 5900 a.u. |
| GAGGCCTAGCACTTGCTGCCTCCTGGCAGCAAGTGCTAGGCCTCACACTC | 4990 a.u. |
| GAGGCCTAGCACGTCCTGCCTCCTGGCAGGACGTGCTAGGCCTCACACTC | 5790 a.u. |
